# Measurements gathered from unrelated publications.
# Compare with care: the assays were run in different laboratories. Numbers after ± are the reported error.
Substance,test,system,conditions,how to read,quantity,value
CSCCNC(=O)CCC(C)C1CCC2C3C(O)CC4CC(O)CCC4(C)C3CCC12C (stereo not drawn),item: Cyp8b1,"SPF mice, liver","oral gavage, 50 mg/kg daily",reference: corn oil,mRNA level,increased
N=C(N)NCCC[C@H](NC(=O)[C@H](CCCNC(=N)N)NC(=O)[C@H](CCCNC(=N)N)NC(=O)[C@H](CCC(N)=O)NC(=O)[C@H](CCCNC(=N)N)NC(=O)[C@H](CCCNC(=N)N)NC(=O)[C@H](CCCCN)NC(=O)[C@H](CCCCN)NC(=O)[C@H](CCCNC(=N)N)NC(=O)[C@H](Cc1c[nH]c2ccccc12)NC(=O)[C@H](Cc1c[nH]c2ccccc12)NC(=O)[C@@H](N)CSSC[C@H](N)C(=O)N[C@@H](Cc1c[nH]c2ccccc12)C(=O)N[C@@H](Cc1c[nH]c2ccccc12)C(=O)N[C@@H](CCCNC(=N)N)C(=O)N[C@@H](CCCCN)C(=O)N[C@@H](CCCCN)C(=O)N[C@@H](CCCNC(=N)N)C(=O)N[C@@H](CCCNC(=N)N)C(=O)N[C@@H](CCC(N)=O)C(=O)N[C@@H](CCCNC(=N)N)C(=O)N[C@@H](CCCNC(=N)N)C(=O)N[C@@H](CCCNC(=N)N)C(=O)NCC(N)=O)C(=O)NCC(N)=O,,"ROSA26-LSL-tdTomato mice, sensorimotor cortex","intracortical, 200 µM, region 2, with: TAT-Cre 40 µM",,tdTomato-positive microglia,< 5%
C=CCCCOP(=O)(O)Oc1c2c(c(OP(=O)(O)OCCCC=C)c3c1C1CC3c3cc4c(cc31)C1CC4c3ccccc31)C1CC2c2cc3c(cc21)C1CC3c2ccccc21,liposome dye leakage,liposomes 200 nm,"30 min, with: carboxyfluorescein 50 mM",,EC50,19.4 µM
C[C@H](NC(=O)[C@H](CCCCN)NC(=O)[C@H](CCCCN)NC(=O)[C@H](CCC(=O)O)NC(=O)[C@@H]1CCCN1)C(=O)N[C@@H](CCCCN)C(=O)N[C@@H](CCCCN)C(=O)N[C@@H](CCCCN)C(=O)O,Griess,"RAW264.7, mouse","1000 µg/mL, 24 h, with: heat-killed Cutibacterium acnes 100 µg/mL",reference: no peptide control,NO production,44.9%
O=C(O)/C=C/c1ccc(O)cc1,,,62.5 µg/mL,,ABTS radical scavenging,50.2 ± 1.3%
CC(C)C[C@H](NC(=O)[C@H](Cc1ccccc1)NC(=O)CNC(=O)CNC(=O)[C@H](Cc1ccc(O)cc1)NC(=O)OC(C)c1ccccc1[N+](=O)[O-])C(=O)O (stereo partly drawn),"GIRK current, MOR agonist","rat, locus coeruleus neurons","10 µM, with: 100 mW 355 nm light, 50 ms",,activation time constant,0.379 ± 0.03 s
CC(C)C[C@H](NC(=O)[C@H](Cc1ccccc1)NC(=O)CNC(=O)CNC(=O)[C@@H](N)Cc1ccc(O)cc1)C(=O)N[C@@H](CCCNC(=N)N)C(=O)N[C@@H](CCCNC(=N)N)C(=O)N[C@@H](CCC(N)=O)C(=O)N[C@@H](Cc1ccccc1)C(=O)O,,C57BL/6 mouse striatal membranes,concentration not given,reference: basal,stimulation,2.3 ± 0.1 fold
CC1=C(C(=O)O)C(c2ccccc2Br)NC(=S)N1 (stereo not drawn),carotid artery cannulation,"male Wistar rats, anaesthetised","0.3 mL, 3 h",,mean arterial pressure,23.8 ± 0.89 mm Hg
[N]#[Os]([Cl])([Cl])[Cl].c1cnc2c(c1)ccc1cccnc12,gel electrophoresis,pUC19 plasmid DNA,,,DNA degradation concentration,> 250 µM
Cc1ccc(/C=C/C(=O)O)cc1-c1cc2c(cc1C)C(C)(C)CCC2(C)C,"RNA sequencing, item: Cga mRNA","rat, brain","dose not given, 24 h, single dose",reference: vehicle,log2 fold change,3.2
COc1ccc2c(c1)C(C)(C)C(/C=C/C1=C(Oc3ccc(C(=O)NCCCCOc4cc(CN(Cc5ccccn5)Cc5ccccn5)cc(CN(Cc5ccccn5)Cc5ccccn5)c4)cc3)C(=C/C=C3/N(CCCCS(=O)(=O)[O-])c4ccc(OC)cc4C3(C)C)CCC1)=[N+]2CCCCS(=O)(=O)[O-].O=[N+]([O-])O.O=[N+]([O-])[O-].O=[N+]([O-])[O-].O=[N+]([O-])[O-].[Zn+2].[Zn+2],photoacoustic imaging,"BALB/c mouse S. aureus myositis, infected muscle","intravenous, dose not given, 12 h",reference: infected over vehicle control muscle,target-to-non-target ratio,2.4 ± 0.49
CN(C)CCN(Cc1ccccc1)C(=O)c1cc(-c2ccc(F)cc2)n2nc(C(C)(C)C)cc2n1,contextual fear conditioning,Tg6799 and wild-type mice,"dose not given, 3 months",,baseline freezing,no effect
somatostatin,,"Sprague-Dawley rat, streptozotocin-induced diabetes, retina","eye drops, 10 mg/mL, score 2",,GFAP-positive glial activation,0%
O=C(O)/C=C/c1cc(O)cc(O)c1,,,125 µg/mL,,ABTS radical scavenging,56.2 ± 2.11%
CC(C)C[C@H](NC(=O)[C@H](Cc1ccccc1)NC(=O)CNC(=O)CNC(=O)[C@@H](N)Cc1ccc(OC(C(=O)O)c2ccccc2[N+](=O)[O-])cc1)C(=O)O (stereo partly drawn),"K+ current, agonist, photo-uncaging",rat locus coeruleus neurons,"concentration not given, 15 repeated uncaging stimuli",,response stability,stable
CCc1ccc(COP(=O)(O)Oc2c3c(c(OP(=O)(O)OCc4ccc(CC)cc4)c4c2C2CC4c4cc5c(cc42)C2CC5c4ccccc42)C2CC3c3cc4c(cc32)C2CC4c3ccccc32)cc1,liposome dye leakage,liposomes 200 nm,"30 min, with: carboxyfluorescein 50 mM",,EC50,6.9 µM
CCN(Cc1ccccc1)C(=O)CCc1nc(CN2CCN(C(=O)Cc3ccc(OC)c(OC)c3)CC2)no1,current clamp,"L4-L6 DRG neurons, rat CCI model","1 µM, with: 500 pA current injection",,action potential number,0.49 ± 0.29
C#CCCCCOP(=O)(O)Oc1c2c(c(OP(=O)(O)OCCCCC#C)c3c1C1CC3c3cc4c(cc31)C1CC4c3ccccc31)C1CC2c2cc3c(cc21)C1CC3c2ccccc21,liposome dye leakage,liposomes 200 nm,"30 min, with: carboxyfluorescein 50 mM",,EC50,90.3 µM
CCc1nnc(-c2c(OC)cc(-c3cnc4cc(-c5cnn(C)c5)ccn34)cc2OC)o1,"RT-qPCR, item: Fgf23","male C57BL/6J mice, cortical bone","oral gavage, dose not given, 3 weeks",,mRNA level,increased
CC[C@H](C)[C@H](NC(=O)[C@@H](NC(=O)[C@H](CC(=O)O)NC(C)=O)[C@@H](C)O)C(=O)N[C@@H](CCCNC(=N)N)C(=O)N[C@@H](CC(C)C)C(=O)N[C@@H](CC(C)C)C(=O)N[C@@H](Cc1ccccc1)C(=O)N[C@@H](CCC(N)=O)C(=O)N[C@@H](CC(C)C)C(=O)N[C@@H](CCSC)C(=O)N[C@@H](CCCNC(=N)N)C(=O)N1CCC[C@H]1C(=O)N1CCC[C@H]1C(=O)N[C@@H](CC(N)=O)C(=O)N[C@@H](CCSC)C(=O)N[C@H](C(=O)N1CCC[C@H]1C(=O)N[C@@H](C)C(=O)N[C@H](C(=O)N[C@@H](CC(N)=O)C(=O)N[C@@H](C)C(N)=O)C(C)C)[C@@H](C)O,item: HA-51 tetramer,"tetramer+ CD4 T cells, PBMC, healthy adults, HLA-DRB1*0101","dose not given, CD62L−CD45RA+/− or CD62L+CD45RA−",,antigen-experienced T cells,41.5%
O=c1c(O)c(-c2cc(O)ccc2O)oc2cc(O)cc(O)c12,,,500 µg/mL,,ABTS radical scavenging,77.2 ± 2.1%
COC[C@@H](NC(C)=O)C(=O)NCc1ccc(OCc2ccc(OC(F)(F)F)cc2)cc1,6 Hz seizures,mouse,intraperitoneal,,ED50,23 mg/kg
CC[C@H](C)[C@H](NC(=O)[C@H](Cc1c[nH]c2ccccc12)NC(=O)[C@H](CCCNC(=N)N)NC(=O)[C@H](CCCCN)NC(=O)[C@H](CC(C)C)NC(=O)[C@H](CC(=O)O)NC(=O)[C@H](Cc1ccccc1)NC(=O)[C@H](C)NC(=O)[C@H](Cc1ccc(O)cc1)NC(=O)[C@H](CC(N)=O)NC(=O)[C@H](Cc1ccc(O)cc1)NC(=O)[C@H](CCCNC(=N)N)NC(=O)[C@H](Cc1ccc(O)cc1)NC(=O)[C@H](Cc1ccc(O)cc1)NC(=O)[C@@H](NC(=O)[C@H](CC(C)C)NC(=O)[C@H](C)NC(=O)[C@H](CC(N)=O)NC(=O)[C@H](Cc1ccc(O)cc1)NC(C)=O)[C@@H](C)CC)C(=O)N[C@@H](Cc1ccc(O)cc1)C(=O)N[C@@H](CC(C)C)C(N)=O,item: HA-51 tetramer,"tetramer+ CD4 T cells, PBMC, healthy adults, HLA-DRB1*0101","dose not given, CD62L−CD45RA+/− or CD62L+CD45RA−",,antigen-experienced T cells,37.5%
O=C(O)CCCC(=O)O,,,250 µg/mL,,ABTS radical scavenging,63.1 ± 2.1%

# Excerpt of the above:
Substance,test,system,conditions,how to read,quantity,value
CC[C@H](C)[C@H](NC(=O)[C@@H](NC(=O)[C@H](CC(=O)O)NC(C)=O)[C@@H](C)O)C(=O)N[C@@H](CCCNC(=N)N)C(=O)N[C@@H](CC(C)C)C(=O)N[C@@H](CC(C)C)C(=O)N[C@@H](Cc1ccccc1)C(=O)N[C@@H](CCC(N)=O)C(=O)N[C@@H](CC(C)C)C(=O)N[C@@H](CCSC)C(=O)N[C@@H](CCCNC(=N)N)C(=O)N1CCC[C@H]1C(=O)N1CCC[C@H]1C(=O)N[C@@H](CC(N)=O)C(=O)N[C@@H](CCSC)C(=O)N[C@H](C(=O)N1CCC[C@H]1C(=O)N[C@@H](C)C(=O)N[C@H](C(=O)N[C@@H](CC(N)=O)C(=O)N[C@@H](C)C(N)=O)C(C)C)[C@@H](C)O,item: HA-51 tetramer,"tetramer+ CD4 T cells, PBMC, healthy adults, HLA-DRB1*0101","dose not given, CD62L−CD45RA+/− or CD62L+CD45RA−",,antigen-experienced T cells,41.5%
CC(C)C[C@H](NC(=O)[C@H](Cc1ccccc1)NC(=O)CNC(=O)CNC(=O)[C@@H](N)Cc1ccc(O)cc1)C(=O)N[C@@H](CCCNC(=N)N)C(=O)N[C@@H](CCCNC(=N)N)C(=O)N[C@@H](CCC(N)=O)C(=O)N[C@@H](Cc1ccccc1)C(=O)O,,C57BL/6 mouse striatal membranes,concentration not given,reference: basal,stimulation,2.3 ± 0.1 fold
O=C(O)/C=C/c1ccc(O)cc1,,,62.5 µg/mL,,ABTS radical scavenging,50.2 ± 1.3%
O=c1c(O)c(-c2cc(O)ccc2O)oc2cc(O)cc(O)c12,,,500 µg/mL,,ABTS radical scavenging,77.2 ± 2.1%
